Published values collected from several papers.
Parts stem from different laboratories: compare values within a part only.

Series 1
Target: Histone acetyltransferase KAT6A, winged helix 2, GST fusion (KAT6A, Homo sapiens, UniProt Q92794, residues 85-181)
Method: protein binding microarray
Molecule type: double-stranded DNA, one strand shown
Matrix: in vitro
Concentration: not given
Setting: 8-mer, flanks averaged, mean of 2 arrays, mostly near background
Reference: not given
Direction: higher = stronger binding
Construct (chain): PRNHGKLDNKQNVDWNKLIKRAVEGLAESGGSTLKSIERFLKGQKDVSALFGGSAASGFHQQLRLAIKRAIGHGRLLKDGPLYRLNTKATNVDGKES
`CATGTTTC` gave an E-score of 0.163.
`ATCTTCAG` gave an E-score of 0.165.
The E-score of `CTGTAGTA` is reported as -0.037.
`CCTAGTTC` gave an E-score of -0.08.
With `CGCGGGAA` the E-score was 0.182.
With `AATCGGGC` the E-score was 0.0581.
`ATAAATCA` has an E-score of 0.104.
`AACTTTCC` has an E-score of -0.147.
`TCGGAAGA` gave an E-score of -0.0231.
`ACCAGATA` gave an E-score of 0.0654.
The E-score of `CAGTCCGC` is reported as 0.135.
`CTCACGTA` gave an E-score of -0.221.
The E-score of `CGGACTAG` is reported as -0.215.
`AAAAGACA` has an E-score of 0.0719.
With `CCAATAGA` the E-score was -0.0772.
`CACGGCCC` gave an E-score of -0.0447.
The E-score of `GACTTTCC` is reported as -0.132.
`AGTGAGTC` gave an E-score of -0.0549.
The E-score of `CCTTTAAC` is reported as 0.0698.
`AAAGGCGG` has an E-score of 0.189.
`CGAGGAAA` has an E-score of 0.0538.
`CGACCTTC` has an E-score of 0.0875.
With `CAGCTACC` the E-score was -0.0754.
For `GGCTGTTA`, the E-score was 0.0817.
`CCAAGAGG` has an E-score of 0.0938.

Series 2
Target: RING finger protein unkempt homolog, zinc fingers 1-6, GST-SBP tag (UNK, Homo sapiens, UniProt Q9C0B0, residues 30-357)
Sequence of UniProt Q9C0B0 (30-357, looked up): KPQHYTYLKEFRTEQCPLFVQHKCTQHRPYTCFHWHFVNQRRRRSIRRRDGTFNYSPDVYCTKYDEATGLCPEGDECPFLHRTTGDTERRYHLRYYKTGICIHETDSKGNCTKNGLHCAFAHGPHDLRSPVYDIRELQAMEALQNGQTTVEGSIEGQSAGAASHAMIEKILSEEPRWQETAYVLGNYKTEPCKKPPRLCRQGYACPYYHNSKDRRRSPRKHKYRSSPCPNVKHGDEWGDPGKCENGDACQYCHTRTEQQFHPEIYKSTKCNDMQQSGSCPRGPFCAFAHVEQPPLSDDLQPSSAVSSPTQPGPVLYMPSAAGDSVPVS
Method: RNA Bind-n-Seq
Molecule type: RNA
Matrix: in vitro
Concentration: not given
Setting: RNA with constant flanks, human and mouse sites, ends assumed
Reference: input RNA pool
Direction: higher = stronger binding
Constant ends, left off below: GGGAGUUCUACAGUCCGACGAUC … CAACAGAGGAUUGAGCAUCA
With `GCCGUCAGGCUACACGAGCGAGGCGAUGCGUCUAAGGAAGACAUCGAUACAGCGAUGAAGCUGGGAGCUGGGUAUCCCAUGGGUCCGUUUGAGCUUCUUGACUAUGUUGGACUGGAUACU` the bound/input enrichment was 0.165 ratio.
`CACCUACUAACCUCACUGUCCUACAAAGUUCGAAUGCAAGCACUGAAAUGUUUCUCAGUUUUAGCUUUUGAAAACCCCCAGGUAUCGAUGACCCUGGUAAAUGUUUUGGUUGAUGGAGAA` has a bound/input enrichment of 0.228 ratio.
`GCAUGCUGGGAACGCUAGCCCUUCCGGGGCGCCUCCGGGCCUCAGGUUCUGGCGUCUCGGCGGAUGCCCAAAGACUCCGCCUUCCCAGGGGCCCCCGCGGCCCUGCGAAGAUGGCGGCGA` has a bound/input enrichment of 0.0873 ratio.
`ACUUGGCUGCCUCGCAGGCAGCCUCCGUUCCUCCCGCUCUCUUGCGCGUGUGCUUUUGUUUUUUAUUUUGAACAGACGUUUUAAAAGAAAAAAAAACAACUACCUUCUGUCCUAGAAGAC` has a bound/input enrichment of 0.169 ratio.
For `UGUCAACACUGCUUUGAACAGUGCUCUGUGAAGUGUAAGUUCUUUUGUCCCAACAGUUGUACUAGCUGUCAUGUGGUUAUUGUCUGAACAAGUCUUUUGAUUUUGUUUUCCUUAAAAAGU`, the bound/input enrichment was 0.186 ratio.
The bound/input enrichment of `GGCUGUUUCUCCACAUUUUGAUGACAUGCACAGUAAUACAGCAUCCACAAUCAAUUUCAUUAUCUCCCAAGUAGCCAGUGGUGACAUCAACACAAGCAUCCAAGCUCUGACACAGAUUGA` is reported as 0.504 ratio.
For `UACAGAGGAAGGGGUAGAGGGUAUUAUCAAGGAGGAGGAGGUAGAUAUCAUCGAGGUGGUUAUAGACCUGUCUGGAAUAGAAGGCACUCUAGGAGUCCUAGACGAGGUCGUUCACGUUCC`, the bound/input enrichment was 0.386 ratio.
`CCAGGCAUGAAAGUCCAAGUGCGGUAUGGACGAGGGAAAAAUCAAAAAAUGUAUGAAGCUAGUAUAAAAGAUUCUGAUGUCGAAGGUGGAGAGGCCCUUUACUUGGUGCAUUACUGCGGA` has a bound/input enrichment of 2.93 ratio.
The bound/input enrichment of `UUUCUUCCCCCUACCUCUGUGGCUGGUGCCACUCUGUACUCAGUGGCAAUGUAUGGUGGAUUAGUUCUUUUCAGCAUGUUCCUUCUGUAUGAUACUCAGAAAGUAAUCAAACGUGCAGAA` is reported as 0.548 ratio.
The bound/input enrichment of `AACAAGACAGACUUGCUCGAGGAGAAAGUGCAAGUUGUUAGCAUCAAAGACUAUUUCCUAGAAUUUGAAGGGGACCCCCACUGCUUAAGAGACGUCCAAAAGUUUCUGGUGGAAUGCUUC` is reported as 0.227 ratio.
For `UUACAACUCAGAUUUUAUUUAUUUUGAAAUUAUCAAUUGUAUAAAUCUAAUUUAUUACCAAAUAGGGUCUUUUAAAAAAUAUUUUUAUCGUUGAAACCUUGACAGGUACUUCAUAUUCUU`, the bound/input enrichment was 6.25 ratio.

Series 3
Target: Ras GTPase-activating protein-binding protein 1, full length (G3BP1, Homo sapiens, UniProt Q13283)
Sequence of UniProt Q13283 (whole entry, looked up): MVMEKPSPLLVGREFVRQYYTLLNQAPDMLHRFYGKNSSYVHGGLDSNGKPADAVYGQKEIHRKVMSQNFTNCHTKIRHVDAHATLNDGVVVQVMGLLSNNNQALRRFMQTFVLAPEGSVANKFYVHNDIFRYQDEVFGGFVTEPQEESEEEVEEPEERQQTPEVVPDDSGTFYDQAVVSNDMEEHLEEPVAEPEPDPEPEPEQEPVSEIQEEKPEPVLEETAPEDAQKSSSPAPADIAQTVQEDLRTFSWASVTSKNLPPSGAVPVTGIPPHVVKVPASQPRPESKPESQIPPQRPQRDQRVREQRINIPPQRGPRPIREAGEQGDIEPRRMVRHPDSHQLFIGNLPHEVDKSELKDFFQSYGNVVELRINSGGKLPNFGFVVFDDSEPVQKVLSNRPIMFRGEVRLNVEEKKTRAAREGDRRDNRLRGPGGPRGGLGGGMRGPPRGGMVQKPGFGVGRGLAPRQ
Method: RNA Bind-n-Seq
Molecule type: RNA
Matrix: in vitro
Concentration: 200 nM
Setting: whole 134-nt RNA, ends assumed
With: 150 mM LiCl
Reference: input library
Direction: higher = stronger binding
All molecules: 7-deaza-guanosine replaces G
Constant ends, left off below: GGGAGUUCUACAGUCCGACGAUC … UGGAAUUCUCGGGUGUCAAGG
The log2 enrichment of `AAGUCCUGUGCUACACAUCGUAUGUACCGAAUCAAAUUUAAAUUUUUAAAUUUAAAAAAGUAUUAUGUUACGCCGUUCGGAUCUGCACUU` is reported as -2.72.
`UGGCCCUGGUGGCAUGCGGGGAGGAAGAGGUGGCCUCAUGGAUCGUGGUGGUCCCGGUGGAAUGUUCACAGGUGGCCGUGGUGGAGACAG` has a log2 enrichment of -0.0687.
With `UUGCAGGAGCCGCCGCGCCUCGGCCUAGCAUGUCGGAAGCGGGCGAGGAGCAGCCCAUGGAGACGACGGGCGCCACCGAGAACGGACAUG` the log2 enrichment was -0.369.
`GCAGGAAGUAAAAACAAAUGGAAAUGCUUCGGAUCGUGGCAGGGGUGGGGGUUGCUAAGGAAAGGGUGGGAUGGGAGUGGGUAAAGAGUU` gave a log2 enrichment of 0.243.
`UAAUUGAAGAACCCAUUUUGCUCAUUUUAGGCAUCGUUAAAGAAUCUGGAGUGAAGCACAAGGGAUUGAUUGAAAUACCCAAUCUUUCUG` has a log2 enrichment of -0.908.
For `UGGCCCUGGUGGCAUGCGGGGAGGAAGAGGUGGCCUCAUGGAUCGUGGUGGUCCCGGUGGAAUGUUCAGAGGUGGCCAUGGUGGAGACAG`, the log2 enrichment was -0.0282.
The log2 enrichment of `AAGUCCUGUGCUACACAUCGUAUGUACCGAAUCGGGUUUUUGGGUUUUUGGGUGGGAAAGUAUUAUGUUACGCCGUUCGGAUCUGCACUU` is reported as -0.609.
`GUCCUGUGCUACACAUCGUAUGUACCGAAUCGGGCCCCCGGGGCCCCCGGGCCCCCGGAAAGUAUUAUGUUACGCCGUUCGGAUCUGCAC` has a log2 enrichment of -0.272.
`UGGCCCUGGUGGCAUGCGGGGAGGAAGAGGUGGCCUCAUGGAUCGUGGUGGUCACGGUGGAAUGUUCAGAGGUGGCCGUGGUGGAGACAG` has a log2 enrichment of 0.522.
The log2 enrichment of `UGGGAGGUGGAUUUUGUUUAUUUUUUUAGCUCAUUUCCAGGGGUGGGAAUUUUUUUAUAAUAUGUGUCAUGAAUAAAGUUGUUUUUGAAA` is reported as -0.31.
For `UGGGAGGUGGAUUCUGUUUAUUUUUUUAGCUCAUUUCCAGGGGUGGGAAUUUUUUUUUAAUAUGUGUCAUGAAUAAAGUUGUUUUUGAAA`, the log2 enrichment was 0.397.

Series 4
Target: RNA binding protein fox-1 homolog 2, RRM domain, GST-SBP tag (RBFOX2, Homo sapiens, UniProt O43251-10, residues 100-194)
Method: RNA Bind-n-Seq
Molecule type: RNA
Matrix: in vitro
Concentration: 365 nM
Setting: natural RNA segment, single round, ends assumed
Reference: no-protein control
Direction: higher = stronger binding
Constant ends, left off below: GGGAGUUCUACAGUCCGACGAUC … UGGAAUUCUCGGGUGCCAA
Construct (chain): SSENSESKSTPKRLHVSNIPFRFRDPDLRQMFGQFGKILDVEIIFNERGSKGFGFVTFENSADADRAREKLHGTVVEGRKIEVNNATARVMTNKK
For `GAACUCUUUAUAAAACCGUCCGAUCUUGUGAGACUUAUUCACUAUCACAAGAACAGCACAGGAAAGUUCUGCCCCCGUGAUUCAAUUACCUCCCACUUGGUCCCACCCAC`, “RBNS enrichment (R)” read 0.43.
For `GGCAAAGUCUUGGGGUCGGGGGUGGGUUGGGGGCAGGGGACUACCCCAUCAGGCAGGCGCCAGUCCGCUGGGUCCCUGUCCAUCCUUUCCACCCCCAGUACCCCAGGUGU`, “RBNS enrichment (R)” read 0.284.
Under “RBNS enrichment (R)”, `UCCUGUUGAAGACUUCCUCUCUACCCCCCACCUUGGUCCCUCUCAGAUACCCAGUGGAAUUCCAACUUGAAGGAUUGCAUCCUGCUGGGGCUGAACAUGCCUGCCAAAGA` is recorded as 1.06.
Under “RBNS enrichment (R)”, `CUCUGUGGACCCUCCCCCUCUCCCAACCUAGGCCUGUCUGGCAUGCUGCAAGGACCAGAGCCAGCCCCCAGGAGCCUCAGGGCCCACUUAGGAAGGAUGCCUUGUGCCUA` is recorded as 1.46.
Under “RBNS enrichment (R)”, `CAGCUUCACAGUCGCCUCAUCUCCUAAGCACUCCUUUCCCCUGCUGUCCCCUUCGACCCUCAGCCCUCUGGUGCCGCUCUGCCCGAUGCACAGCCACCUCAGCCAGCCCC` is recorded as 0.403.
`AGCAUUGUGGCUCCUAGUGCAGCCCUGCUUCCACUCUUGGUUUAGCUGGAACCUUCCCACUCAUGGAAUAUAAGUAAACUCACUUUCUUUGUCACCAAUAAAUGGUAAUA`: “RBNS enrichment (R)” 0.454.
For `UCAAAGCCACCUACGGCAGGGACACACUCGUGAGCAUGUGUGGCCUGCAGUUCAGGUGAUACAUUUACCAGUGUUCUUGUUUGUGUGGUGCCAGGAAAUUGAUUUUGGAA`, “RBNS enrichment (R)” read 1.83.
Under “RBNS enrichment (R)”, `UCAGUGAAAAAUGUUAAGAAGUUGAUGCAAGCUGCAUGCUCCUUGUUAAGAUGCAGGCUUUGCAUAUCACCAGGUCACUUAGAAUAUUCUAACAGUUACUCUGAAGAUGU` is recorded as 2.35.
For `UGUCAAUUUGAAAACUACAUCUACUGUAUUAUUGCUGAAUAUUUUGUUAAUACUAAGGGACAAUUAUUUUAAGACCAUGGGUUUUGUUUUUAACAUAUUUUAUUUCUGCA`, “RBNS enrichment (R)” read 1.06.
`AAAAACAAGCUUUUGAAAGACUGGAAGUUAAGAAAGAAACUUUACUGGCAAUGUUUAAGGACAACAAGUUCAAAUGCCGGAUAUUGAAUGAAAAGGUGAAUACUCCAACU`: “RBNS enrichment (R)” 0.577.
`UGAAGUUUGUUACGUGUAAGGGAAGCUGAAGUUCUUGUAUCUUUAAAGAGGAAAUCUUAUUUAACCCUUUGUGUCCUAGAUUGACUUACACACAUAGCCUAGAGCUCAGU` — result for “RBNS enrichment (R)”: 0.353.
For `GAGCCAUGCUACAGUUAGUCUUGUCCCAAUUAAAAUACUAUGCAGUAUCUCUUACAUCAGUAGCAUUUUUCUAAAACCUUAGUCAUCAGAUAUGCUUACUAAAUCUUCAG`, “RBNS enrichment (R)” read 0.364.

Some of these lines once more (series 1):
`CGAGGAAA` has an E-score of 0.0538.
With `AATCGGGC` the E-score was 0.0581.
With `CCAATAGA` the E-score was -0.0772.
The E-score of `CCTTTAAC` is reported as 0.0698.
`CATGTTTC` gave an E-score of 0.163.
`AAAAGACA` has an E-score of 0.0719.
`CCAAGAGG` has an E-score of 0.0938.
